Experimental data collected from several papers.
Every numbered part comes from another study and shows a few of its results, in no order.

Study 1 — organism: Saccharomyces cerevisiae; read-out: cell growth; technique: competitive growth deep sequencing; form: peptide; notes: peptide tiling library; together with: cyclin E2-Cln2 fusion; direction: direction not given; measurement: enrichment score
IFNKPECGRVQRAIFQ: -0.769
VRDLSYRLVFLACCVA: -0.32
FREFEVEKQTAEETGL: 0.752
NRLLKLFTRCLTPLVP: -0.963
NLEPNAEFDKRTEFIT: 0.124
ALTMEALEDPSPELME: 1.25
EAAPPTQEAQGETEPT: 0.692
AIRKMREDRWAVIAKM: -0.566
DSGFCLDSPGPLDSKE: 1.19
TLPYDLACTGGDFVLF: 1.13
DSDSDSEGGAAGGEAD: 2.62
LFVPQRKLEVSTEDVH: -0.371
VEEEFFALRKRTPSAG: 0.402
RNRGPKLNAMLRLGVL: -1.27
RRRIKLPESDSSED: 2.42
ELGMEHCEKFEISETS: 1.24
NARRSLNFGGSTGT: 0.369
IPDRSTKPVVFSPT: 0.734
TQERKQIHCLSEDELS: 0.066
NCKKRRALDFLSRLPL: -1.23
SGYLTDENEVGFRG: 0.56

Study 2 — technique: RNA Bind-n-Seq; form: RNA; matrix: in vitro; concentration: not given; notes: RNA with constant flanks, ends assumed; baseline: input RNA pool; direction: higher = stronger binding; measurement: bound/input enrichment
Target: RING finger protein unkempt homolog, zinc fingers 1-6, GST-SBP tag (UNK, Homo sapiens, UniProt Q9C0B0, residues 30-357)
Shared flanks, not repeated: GGGAGUUCUACAGUCCGACGAUC … CAACAGAGGAUUGAGCAUCA
Construct (chain): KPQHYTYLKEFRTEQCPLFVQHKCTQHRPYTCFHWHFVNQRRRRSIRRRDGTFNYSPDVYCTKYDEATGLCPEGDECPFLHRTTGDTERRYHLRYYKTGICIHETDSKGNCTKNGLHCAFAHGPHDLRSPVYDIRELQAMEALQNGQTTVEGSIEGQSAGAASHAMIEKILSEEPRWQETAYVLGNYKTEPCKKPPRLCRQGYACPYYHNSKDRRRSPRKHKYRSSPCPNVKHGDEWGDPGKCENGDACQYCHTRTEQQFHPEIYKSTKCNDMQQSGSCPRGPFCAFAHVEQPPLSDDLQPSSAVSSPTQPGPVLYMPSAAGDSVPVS
CUUGUUUAAAGCAAAACAAGACCUUGAAAGGUCAAUCAUAUUAAAGCUGGUUUGAUUAUUAACCGUUAUCUUUUAGGAAGAAGCUUUUUUCCCUAUGUAAGAUGUCAUACUGCAGAUUUA: 1.58 ratio
AAAGAAAACCUGGAGACUUCUCCUUUCAUAACUCCCGGAAAGCCUUGGGAAGAGGCCCGCCGUUUUAUUAUGAAUGAGGAUUUCUACCAGUGGCUGGAGGAAUCUGUAUACAUGGAUAUU: 0.32 ratio
ACCAUUGCCUUGCUUGGUUACCUGAAGCACUACAGAAACAUUCCUGGACCCCACAUGGUUUCCGUUCCCAAGUCUACUUUACAUAACUGGAUGAAUGAAUUUAAACGAUGGGUUCCAUCU: 0.0535 ratio
UUCCACCUGUAUUAGUUAUCUAUUGCUGUGUAAAAAAUUACCCUAAAUUUAGUAUGUUAAAACCGUAAACAUUAUCUGUCAGUUUCUGUGGGUUAAGAAUUUGGGAGUAGUUUAACAUGA: 2.59 ratio
GAGCAGGGUGACAUGGCUGGCAAUUCUGCUUUAUAAAAUCGUGUCUCUAAAACUGUGUUCAUGUGUCCCGGAAGUAUUUAAUAAACUUGUGUAGAAACUUUUUGUGGUUGGGCCCUGGGA: 1.17 ratio
GUAGAUGGUACCUUUCUAGUGUGGCAUGUGAAGUAUUUGGAUGAAUAUAAUCCUGGAAUAUUCCGACAAGUUCAGGUUUCUUUUUCUUCUCGGAUUCCUGUUGCAUUUCCCUCUGGUGAU: 0.322 ratio
UUUCUUAUUUUGAUAUUUUUUUAAUGUUGUGGAUGAAUGCCAGCUUUCAGACAGAGCCCACUCCGCUUGUCCACAUGGAUCUCAAUGCCAAUCCUCCAUUCUUCCUCUCCAGAUAUUUUU: 2.63 ratio
UUUUUUCUGCCAAAAGGAGCCUACAUUUAUAAUGCACUUAUUGAAUUCAUUAGGAGCGAAUACCGGAAAAGAGGAUUCCAGGAGGUAGUCACCCCAAACAUCUUCAACAGCCGACUCUGG: 0.598 ratio
CGAUAAUACUUGACCUCUGUGACCAACUAUUGGAUUGAGAAACUGACAAGCCUUGGUUGACCGCAAGAACCCUUUCAGUUUACAUUGUGACAUUCUGUUGUAAAAAUCAACUAAAAUGCU: 0.197 ratio
CGAGAAGUAGGAAUCCCUCCAGAACAAUCCUUGGAAACUGCUAAGGCAGUAAAGGAGCGCUACCGUUAUGUCUGCCCAGAUUUAGUAAAAGAAUUUAACAAGUAUGAUACAGAUGGGUCA: 1.27 ratio
UUCUCCACUUUUUAUUGAUGAUUUAAAACACUCUAGUCUUCCCCUCAAAUCAUGCAUGCAAACCGGAGGACAGUGGUGGUGACUCAACUGGAUACAGGUGCUCAAUAGUCAGGCUUGAUA: 0.338 ratio

Study 3 — technique: protein-binding microarray; form: double-stranded DNA, one strand shown; matrix: in vitro; concentration: 250 nM; notes: 60-bp whole probe; together with: salmon DNA 0.4 mg/ml; baseline: random background probes; direction: higher = stronger binding; measurement: log fluorescence; shared flanks, not repeated: GCCTAGCAC … GTCTTGATTCGCTTGACGCTGCTG
Target: Interferon regulatory factor 7, full length, phosphomimetic (IRF7, Homo sapiens, UniProt Q92985, residues 1-503, S101K/S471D/S472D/S475D/S476D/S477D/S483D/S484D/S487D)
Sequence of UniProt Q92985 (whole entry, unmodified, looked up): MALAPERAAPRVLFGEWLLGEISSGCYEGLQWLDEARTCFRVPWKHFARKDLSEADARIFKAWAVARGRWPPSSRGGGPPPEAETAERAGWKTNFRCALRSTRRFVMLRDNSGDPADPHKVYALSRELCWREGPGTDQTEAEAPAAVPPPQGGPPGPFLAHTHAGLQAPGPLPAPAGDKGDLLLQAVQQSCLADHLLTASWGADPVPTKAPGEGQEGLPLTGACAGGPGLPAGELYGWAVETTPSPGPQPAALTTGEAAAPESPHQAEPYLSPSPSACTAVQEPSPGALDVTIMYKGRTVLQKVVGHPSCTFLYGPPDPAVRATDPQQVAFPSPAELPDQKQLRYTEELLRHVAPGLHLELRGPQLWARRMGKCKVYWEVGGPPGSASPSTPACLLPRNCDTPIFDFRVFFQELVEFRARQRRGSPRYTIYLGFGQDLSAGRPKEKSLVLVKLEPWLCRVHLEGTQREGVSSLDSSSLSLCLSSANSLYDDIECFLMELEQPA
GACGGAATGGGACTGGGGACGTGCTAG: -0.455 z-score
CTTCCTCTTTCTCTGCTACCGTGCTAG: 2.57 z-score
TTAGAACCGAGTTTCGATTAGTGCTAG: 8.53 z-score
GTGTTTCTCAACCATTTTGTTGTGCTA: 1.79 z-score
TAAATTTTGATGGAGAGTGCGTGCTAG: -0.188 z-score
TCAAGAATGTTTTTCATACTGTGCTAG: -0.0556 z-score
TTAGGACTGGGTCTCGATTAGTGCTAG: 0.773 z-score
TTAGGTTTCCTTATCCTTTCGTGCTAG: 2.76 z-score
GACGAGCTCAGACTGGAGACGTGCTAG: -0.793 z-score
GACTGTTTCGGTTCCGGGACGTGCTAG: 7.25 z-score
GACAATTTCAGACTGGAGACGTGCTAG: 0.0184 z-score
GGGGCTTGGGAGAGGCATCCGTGCTAG: -0.788 z-score
AAACGGATGATCTCTCTGGGCGTGCTA: -1.01 z-score
GACGGACTGCTTCTCCGGACGTGCTAG: 0.0599 z-score
TTAGGACTGCTACTGGTTTAGTGCTAG: -0.238 z-score
GACGGTCTCGGTTTTGGGACGTGCTAG: 4.69 z-score
GACGGACTGGCGTATCGGGACGTGCTA: -0.872 z-score
GAAGGACTGCTTTTCCTGACGTGCTAG: 0.889 z-score
TTCTATGACTACATTGCAGCGTGCTAG: 0.0351 z-score
TTAGGACTGGACTATCGATTAGTGCTA: 0.0502 z-score

Study 4 — technique: RNA Bind-n-Seq; form: RNA; matrix: in vitro; concentration: 1 µM; notes: whole 134-nt RNA, ends assumed; together with: 150 mM KCl; baseline: input library; direction: higher = stronger binding; measurement: log2 enrichment
Target: Ras GTPase-activating protein-binding protein 1, RRM domain (G3BP1, Homo sapiens, UniProt Q13283)
Sequence of UniProt Q13283 (whole entry, looked up): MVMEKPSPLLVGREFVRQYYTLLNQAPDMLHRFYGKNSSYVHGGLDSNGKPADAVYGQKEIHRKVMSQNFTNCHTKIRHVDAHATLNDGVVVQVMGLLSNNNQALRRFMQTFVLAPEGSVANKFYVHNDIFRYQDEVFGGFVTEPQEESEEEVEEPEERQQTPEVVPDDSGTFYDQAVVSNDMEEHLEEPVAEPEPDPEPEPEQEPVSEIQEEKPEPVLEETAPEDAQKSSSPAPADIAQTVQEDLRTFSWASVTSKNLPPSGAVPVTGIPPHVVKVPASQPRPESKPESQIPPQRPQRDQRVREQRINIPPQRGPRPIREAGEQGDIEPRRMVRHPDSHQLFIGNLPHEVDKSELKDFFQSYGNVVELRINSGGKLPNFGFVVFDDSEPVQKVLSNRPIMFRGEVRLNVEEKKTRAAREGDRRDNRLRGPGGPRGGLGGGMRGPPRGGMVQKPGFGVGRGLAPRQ
Shared flanks, not repeated: GGGAGUUCUACAGUCCGACGAUC … UGGAAUUCUCGGGUGUCAAGG
UCAAGUCCUGUGCUACACAUCGUAUGUACCGAAUCGGGGAGGGGAGGGGAGGGGAAAGUAUUAUGUUACGCCGUUCGGAUCUGCACUUCC: 1.05
UGACUUUAGGAGAUACCUUAACUCGACGUUCCAUUAGCCAGCAGAAGUCCGGAGUUUCCAUUACCAUUGAUGACCCAGUCCGAACUGCCC: -0.0284
UCAAGUCCUGUGCUACACAUCGUAUGUACCGAAUCGGGAGGGUGGGUUUUUGGGAAAGUAUUAUGUUACGCCGUUCGGAUCUGCACUUCC: 0.84
UCCUGUGCUACACAUCGUAUGUACCGAAUCGGGGUUUGGGGAAAAAGGGGUUUUUGGGGAAAGUAUUAUGUUACGCCGUUCGGAUCUGCA: 1.41
UCCUGUGCUACACAUCGUAUGUACCGAAUCGGGGAAAAAGGGGAGGGGUUUUUUUGGGGAAAGUAUUAUGUUACGCCGUUCGGAUCUGCA: 0.634
ACCAUGCAGGUGGGCAUCUUUGGGAAGUGGGGCAAGGGGGGGAUAGGGAGGGGGGUAACACUUUGGUAACAGGUGGUCCCAGGUCGUUUC: 0.845
UAACUUUAGAGGAGGAACUGAUGGAUAUGGCAGUGGACGUGGAUUUGGGGAUGGCUAUAAUGGGUAUGGAGGAGGACCUGGAGGUGGCAA: -0.751
CCUCAAGUCCUGUGCUACACAUCGUAUGUACCGAAUCGGUGGGUGGGGUGGGGAAAGUAUUAUGUUACGCCGUUCGGAUCUGCACUUCCA: 0.0832
UGGGAGGUGGAUUUUGUUUAUUUUUUUAGCUCAUUUCCAGGGGUGGCAAUUUUUUUUUAAUAUGUGUCAUGAAUAAAGUUGUUUUUGAAA: 2.07
GCAGGAAGUAAAAACAAAUGGAAAUGCUUCGGAUAGUGGCAGGGAUGGGGGUUGCUAAGGAAAGGGUGGGAUGGGAGUGGGUAAAGAGUU: 0.962

Excerpt of the above (study 4):
UGACUUUAGGAGAUACCUUAACUCGACGUUCCAUUAGCCAGCAGAAGUCCGGAGUUUCCAUUACCAUUGAUGACCCAGUCCGAACUGCCC: -0.0284
UCAAGUCCUGUGCUACACAUCGUAUGUACCGAAUCGGGAGGGUGGGUUUUUGGGAAAGUAUUAUGUUACGCCGUUCGGAUCUGCACUUCC: 0.84
UCCUGUGCUACACAUCGUAUGUACCGAAUCGGGGUUUGGGGAAAAAGGGGUUUUUGGGGAAAGUAUUAUGUUACGCCGUUCGGAUCUGCA: 1.41
UCCUGUGCUACACAUCGUAUGUACCGAAUCGGGGAAAAAGGGGAGGGGUUUUUUUGGGGAAAGUAUUAUGUUACGCCGUUCGGAUCUGCA: 0.634
ACCAUGCAGGUGGGCAUCUUUGGGAAGUGGGGCAAGGGGGGGAUAGGGAGGGGGGUAACACUUUGGUAACAGGUGGUCCCAGGUCGUUUC: 0.845
UAACUUUAGAGGAGGAACUGAUGGAUAUGGCAGUGGACGUGGAUUUGGGGAUGGCUAUAAUGGGUAUGGAGGAGGACCUGGAGGUGGCAA: -0.751
CCUCAAGUCCUGUGCUACACAUCGUAUGUACCGAAUCGGUGGGUGGGGUGGGGAAAGUAUUAUGUUACGCCGUUCGGAUCUGCACUUCCA: 0.0832
